Experimental data pooled from the literature.
Parts stem from different laboratories: compare values within a part only.
UniProt P15056, sequence (whole entry, unmodified, looked up): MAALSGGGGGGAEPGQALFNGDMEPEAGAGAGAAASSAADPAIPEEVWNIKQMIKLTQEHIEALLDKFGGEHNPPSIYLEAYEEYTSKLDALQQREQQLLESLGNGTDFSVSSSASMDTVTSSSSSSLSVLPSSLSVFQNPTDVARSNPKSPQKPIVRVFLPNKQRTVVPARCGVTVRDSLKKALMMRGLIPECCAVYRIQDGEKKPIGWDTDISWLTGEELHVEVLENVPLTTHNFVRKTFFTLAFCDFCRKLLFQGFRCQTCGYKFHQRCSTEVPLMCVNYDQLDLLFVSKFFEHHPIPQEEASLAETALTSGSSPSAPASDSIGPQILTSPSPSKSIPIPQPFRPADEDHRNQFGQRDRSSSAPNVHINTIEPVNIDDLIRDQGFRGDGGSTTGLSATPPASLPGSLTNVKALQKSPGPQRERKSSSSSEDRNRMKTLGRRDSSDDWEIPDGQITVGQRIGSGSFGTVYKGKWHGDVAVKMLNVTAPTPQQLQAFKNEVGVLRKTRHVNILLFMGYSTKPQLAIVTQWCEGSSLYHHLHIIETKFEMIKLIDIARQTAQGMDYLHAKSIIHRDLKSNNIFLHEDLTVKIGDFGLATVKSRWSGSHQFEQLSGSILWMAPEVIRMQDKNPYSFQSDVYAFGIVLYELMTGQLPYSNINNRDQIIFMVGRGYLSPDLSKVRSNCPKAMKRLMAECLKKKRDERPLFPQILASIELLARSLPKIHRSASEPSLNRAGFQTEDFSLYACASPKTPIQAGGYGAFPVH
UniProt Q9HCP0, sequence (whole entry, looked up): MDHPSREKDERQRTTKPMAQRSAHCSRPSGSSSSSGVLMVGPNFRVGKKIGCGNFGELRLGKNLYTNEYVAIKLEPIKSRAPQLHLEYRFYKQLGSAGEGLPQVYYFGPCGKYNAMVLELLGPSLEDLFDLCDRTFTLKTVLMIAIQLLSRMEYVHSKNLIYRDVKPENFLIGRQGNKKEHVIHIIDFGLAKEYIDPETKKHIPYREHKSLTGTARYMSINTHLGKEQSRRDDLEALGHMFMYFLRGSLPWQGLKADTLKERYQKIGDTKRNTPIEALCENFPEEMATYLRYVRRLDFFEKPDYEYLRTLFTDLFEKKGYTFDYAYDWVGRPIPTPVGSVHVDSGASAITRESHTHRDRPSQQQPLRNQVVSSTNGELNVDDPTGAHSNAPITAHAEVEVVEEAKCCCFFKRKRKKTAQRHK
UniProt P11802, sequence (whole entry, looked up): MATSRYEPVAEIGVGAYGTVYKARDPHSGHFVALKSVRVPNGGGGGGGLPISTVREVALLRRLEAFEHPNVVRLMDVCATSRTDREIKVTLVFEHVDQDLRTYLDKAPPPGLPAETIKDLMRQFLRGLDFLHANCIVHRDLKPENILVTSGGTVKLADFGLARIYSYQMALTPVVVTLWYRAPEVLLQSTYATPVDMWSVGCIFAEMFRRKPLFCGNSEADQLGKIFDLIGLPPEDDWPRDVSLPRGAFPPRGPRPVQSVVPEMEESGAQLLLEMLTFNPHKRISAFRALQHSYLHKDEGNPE
UniProt P25098, sequence (whole entry, looked up): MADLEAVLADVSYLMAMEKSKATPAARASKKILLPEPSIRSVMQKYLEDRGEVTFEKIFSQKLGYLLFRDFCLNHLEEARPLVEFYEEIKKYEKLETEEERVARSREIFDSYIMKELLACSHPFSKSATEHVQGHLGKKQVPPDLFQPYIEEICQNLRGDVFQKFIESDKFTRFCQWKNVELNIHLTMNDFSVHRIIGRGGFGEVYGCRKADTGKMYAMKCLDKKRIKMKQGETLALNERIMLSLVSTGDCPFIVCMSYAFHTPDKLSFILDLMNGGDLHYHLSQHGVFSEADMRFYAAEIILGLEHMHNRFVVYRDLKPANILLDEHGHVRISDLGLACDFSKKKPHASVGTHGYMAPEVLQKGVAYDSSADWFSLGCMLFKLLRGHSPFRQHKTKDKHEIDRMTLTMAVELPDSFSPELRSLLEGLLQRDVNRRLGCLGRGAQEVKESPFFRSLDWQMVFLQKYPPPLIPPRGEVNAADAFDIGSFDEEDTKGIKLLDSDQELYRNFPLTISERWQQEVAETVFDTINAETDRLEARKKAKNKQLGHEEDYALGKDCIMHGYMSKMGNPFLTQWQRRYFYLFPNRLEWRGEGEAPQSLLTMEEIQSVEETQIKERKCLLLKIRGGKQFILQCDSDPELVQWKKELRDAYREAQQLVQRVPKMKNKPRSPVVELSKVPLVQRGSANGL
UniProt Q14289, sequence (whole entry, looked up): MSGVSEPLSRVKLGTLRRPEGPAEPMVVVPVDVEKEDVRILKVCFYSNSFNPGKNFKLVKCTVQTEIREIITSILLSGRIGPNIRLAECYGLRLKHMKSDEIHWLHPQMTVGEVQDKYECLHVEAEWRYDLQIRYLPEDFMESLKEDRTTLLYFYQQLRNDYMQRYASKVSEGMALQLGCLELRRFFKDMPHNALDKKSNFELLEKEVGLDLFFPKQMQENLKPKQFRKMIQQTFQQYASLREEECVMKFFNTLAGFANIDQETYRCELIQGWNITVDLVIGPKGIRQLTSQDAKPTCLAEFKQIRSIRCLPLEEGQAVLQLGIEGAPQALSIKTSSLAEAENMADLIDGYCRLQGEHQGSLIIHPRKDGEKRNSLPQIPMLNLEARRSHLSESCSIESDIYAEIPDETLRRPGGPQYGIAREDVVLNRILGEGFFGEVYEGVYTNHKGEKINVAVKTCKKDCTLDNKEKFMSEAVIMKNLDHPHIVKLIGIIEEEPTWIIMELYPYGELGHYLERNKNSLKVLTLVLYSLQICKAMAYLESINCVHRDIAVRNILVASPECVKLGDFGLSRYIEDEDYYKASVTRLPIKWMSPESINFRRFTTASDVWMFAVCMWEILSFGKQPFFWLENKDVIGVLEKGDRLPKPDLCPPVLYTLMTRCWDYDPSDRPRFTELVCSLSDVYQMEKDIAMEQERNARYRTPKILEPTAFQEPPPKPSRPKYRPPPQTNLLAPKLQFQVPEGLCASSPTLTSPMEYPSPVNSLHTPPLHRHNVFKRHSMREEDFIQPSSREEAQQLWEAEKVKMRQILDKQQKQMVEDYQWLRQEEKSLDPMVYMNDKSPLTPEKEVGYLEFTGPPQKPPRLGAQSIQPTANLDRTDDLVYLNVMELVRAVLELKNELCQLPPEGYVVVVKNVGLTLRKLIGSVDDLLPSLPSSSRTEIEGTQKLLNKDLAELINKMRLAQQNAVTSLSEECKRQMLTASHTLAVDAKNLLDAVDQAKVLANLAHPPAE
UniProt O14757, sequence (whole entry, looked up): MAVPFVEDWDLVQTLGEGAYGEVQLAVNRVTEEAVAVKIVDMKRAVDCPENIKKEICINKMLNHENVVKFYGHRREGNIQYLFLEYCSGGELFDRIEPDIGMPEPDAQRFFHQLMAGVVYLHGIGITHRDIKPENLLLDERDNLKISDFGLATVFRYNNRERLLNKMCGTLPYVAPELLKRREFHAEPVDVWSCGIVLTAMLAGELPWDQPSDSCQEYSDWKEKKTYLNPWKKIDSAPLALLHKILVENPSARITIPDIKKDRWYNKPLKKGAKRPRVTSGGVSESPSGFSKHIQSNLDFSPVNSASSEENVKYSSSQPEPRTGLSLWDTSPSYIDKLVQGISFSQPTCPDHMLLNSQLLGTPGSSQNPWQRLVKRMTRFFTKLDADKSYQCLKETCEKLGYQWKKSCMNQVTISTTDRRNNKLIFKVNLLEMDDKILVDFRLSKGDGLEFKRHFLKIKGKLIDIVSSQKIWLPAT
UniProt Q8IVW4, sequence (whole entry, looked up): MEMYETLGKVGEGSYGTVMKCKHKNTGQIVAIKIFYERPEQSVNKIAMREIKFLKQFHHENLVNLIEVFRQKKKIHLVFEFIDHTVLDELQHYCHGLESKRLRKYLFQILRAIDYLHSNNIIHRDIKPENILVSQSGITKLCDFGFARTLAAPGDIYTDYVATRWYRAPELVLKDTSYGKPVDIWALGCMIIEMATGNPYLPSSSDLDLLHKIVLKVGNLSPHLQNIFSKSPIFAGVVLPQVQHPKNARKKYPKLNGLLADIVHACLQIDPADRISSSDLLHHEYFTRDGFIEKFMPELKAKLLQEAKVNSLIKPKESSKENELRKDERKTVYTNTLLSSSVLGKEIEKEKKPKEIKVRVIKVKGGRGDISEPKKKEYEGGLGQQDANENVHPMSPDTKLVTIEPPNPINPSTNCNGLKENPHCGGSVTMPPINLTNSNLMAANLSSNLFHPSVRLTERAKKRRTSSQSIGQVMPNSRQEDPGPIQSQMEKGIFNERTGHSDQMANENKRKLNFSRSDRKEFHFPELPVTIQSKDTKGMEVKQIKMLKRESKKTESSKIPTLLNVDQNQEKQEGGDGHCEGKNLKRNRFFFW

Series 1
Organism: Sarcocystis neurona
Effect on: parasite growth
Tested at: 10 µM
Notes: secondary screen
| SMILES | inhibition [%] |
| --- | --- |
| O=C(CCCN1CC=C(n2c(=O)[nH]c3ccccc32)CC1)c1ccc(F)cc1 | -2 |
| CO[C@@H]1[C@@H](O[C@@H]2O[C@H](C)[C@@H](O[C@H]3C[C@@](C)(O)[C@@H](OC(=O)CC(C)C)[C@H](C)O3)[C@H](N(C)C)[C@H]2O)[C@@H](CC=O)C[C@@H](C)[C@@H](O)/C=C/C=C/C[C@@H](C)OC(=O)C[C@H]1OC(C)=O | 9.2 |
| COc1cc2nc(N3CCN(C(=O)C4COc5ccccc5O4)CC3)nc(N)c2cc1OC (stereo not drawn) | 73.5 |
| COc1ccc(CC2c3cc(OC)c(OC)cc3CC[N+]2(C)CCC(=O)OCCCCCOC(=O)CC[N+]2(C)CCc3cc(OC)c(OC)cc3C2Cc2ccc(OC)c(OC)c2)cc1OC (stereo not drawn) | -0.133 |
| Cc1ccc(N(CC2=NCCN2)c2cccc(O)c2)cc1 | -21.9 |
| COc1cc(NC(C)CCCN)c2ncccc2c1 (stereo not drawn) | 99 |
| OCCN1CCN(CCCN2c3ccccc3Sc3ccc(Cl)cc32)CC1 | 84.5 |

Series 2
Species: human
Sample: microsomes or S9
Tested at: 2 µM
Time: 0.5 h
| Compound | remaining compound |
| --- | --- |
| CC(C)CC(=O)NCC12CCCC=C1N(C)C(=O)CC2 (stereo not drawn) | 76.7% |
| NC(CCc1c(Cl)cccc1Cl)c1ccc(Cl)cc1Cl (stereo not drawn) | 62.7% |
| COC(=O)c1sccc1NC(=O)Nc1c(C)nn(Cc2ccccc2C)c1C | 2.19% |
| c1ccc(Cn2nnc(C3(c4ccccc4)CCOCC3)n2)cc1 | 41.6% |
| CCC1c2c(OC)c3c(c(OC)c2C(c2cc(OC)c4c(c2OC)OCO4)C1C)OCO3 (stereo not drawn) | 19.6% |
| Cc1cc(C)c(NC(=O)CN(C)S(=O)(=O)c2ccc3[nH]c(=O)ccc3c2)c(C)c1 | > 100% |
| CC(=O)Nc1ccc(N2N=C(c3ccc(O)cc3)C(C)CC2=O)cc1 (stereo not drawn) | 70% |
| CCN(CC)C1c2cccc3cccc(c23)C1NS(=O)(=O)c1ccccc1 (stereo not drawn) | 3.11% |

Series 3
SMILES: Cc1ccc(O)cc1Nc1ccnc2cc(-c3ccccn3)ccc12
Target: Receptor-interacting serine/threonine-protein kinase 3 (RIPK3, Homo sapiens, UniProt Q9Y572)
UniProt Q9Y572, sequence (whole entry, looked up): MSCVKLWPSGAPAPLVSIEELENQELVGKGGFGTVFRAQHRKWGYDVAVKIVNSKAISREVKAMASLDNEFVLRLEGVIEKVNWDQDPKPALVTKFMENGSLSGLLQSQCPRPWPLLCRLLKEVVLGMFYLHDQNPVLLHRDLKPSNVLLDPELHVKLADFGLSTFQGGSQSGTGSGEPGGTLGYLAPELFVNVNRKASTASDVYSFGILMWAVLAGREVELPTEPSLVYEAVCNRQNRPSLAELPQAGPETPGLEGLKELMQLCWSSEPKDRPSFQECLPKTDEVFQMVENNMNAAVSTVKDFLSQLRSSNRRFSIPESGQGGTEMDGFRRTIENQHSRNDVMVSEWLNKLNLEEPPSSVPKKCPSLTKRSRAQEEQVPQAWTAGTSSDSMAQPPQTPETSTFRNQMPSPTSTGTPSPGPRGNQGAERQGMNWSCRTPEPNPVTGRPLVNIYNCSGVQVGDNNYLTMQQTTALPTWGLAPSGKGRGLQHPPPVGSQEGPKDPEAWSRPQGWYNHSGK
Effect on: kinase activity
Mode: inhibitor
Method: ADP-Glo
Time: 1 h
| setting | inhibition [%] |
| --- | --- |
| 3.125 nM | 42.1 |
| 25 nM | 81.6 |
| 50 nM | 91.5 |
| 1.563 nM | 20.2 |

Series 4
Cell line: HaCaT
Tested at: 100 µM
Time: 36 h
| Structure (SMILES) | viability [%] |
| --- | --- |
| C[N+](C)(C)CCOP(=O)(O)OP(=O)([O-])OC[C@H]1O[C@@H](n2ccc(N)nc2=O)[C@H](O)[C@@H]1O | 82.1 |
| Cc1cc(=O)oc2cc(O)ccc12 | 52.1 |
| O=C1CCC(N2C(=O)c3ccccc3C2=O)C(=O)N1 (stereo not drawn) | 95.3 |
| CC(C(O)c1ccc(O)cc1)N1CCC(Cc2ccccc2)CC1 (stereo not drawn) | 16.7 |
| CC(C)Oc1ccc2c(=O)c(-c3ccccc3)coc2c1 | 77.4 |
| COc1cc2c(cc1Cc1cccc(Cl)c1F)c(=O)c(C(=O)O)cn2[C@H](CO)C(C)C | 61.6 |
| CC(=O)OCC(=O)[C@@]1(O)CC[C@H]2[C@@H]3CCC4=CC(=O)CC[C@]4(C)[C@H]3[C@@H](O)C[C@@]21C | 80 |

Series 5
SMILES: CC1=C(C#N)C(c2ccc3c(c2)c(NC(=O)c2ccccc2C)nn3C)C(C#N)=C(C)N1
Method: competition with immobilised ligand
Tested at: 1 µM
| target | assay | remaining binding [%] |
| --- | --- | --- |
| MAPK3 (Homo sapiens, UniProt P27361) | cell-free assay | 94 |
| FLT4 (Homo sapiens, UniProt P35916) | cell-free assay | 100 |
| STK38L (Homo sapiens, UniProt Q9Y2H1) | binding | 98 |
| STK17B (Homo sapiens, UniProt O94768) | cell-free assay | 88 |
| CDK4 (Homo sapiens, UniProt P11802) | cell-free assay | 100 |
| GRK2 (Homo sapiens, UniProt P25098) | cell-free assay | 91 |
| TEC (Homo sapiens, UniProt P42680) | binding | 100 |
| BUB1 (Homo sapiens, UniProt O43683) | cell-free assay | 74 |
| EPHA2 (Homo sapiens, UniProt P29317) | cell-free assay | 82 |
| BRAF (Homo sapiens, UniProt P15056, V600E) | cell-free assay | 62 |
| CDKL3 (Homo sapiens, UniProt Q8IVW4) | binding | 79 |
| RET (Homo sapiens, UniProt P07949, V804M) | cell-free assay | 91 |
| CSNK1G1 (Homo sapiens, UniProt Q9HCP0) | cell-free assay | 100 |
| CHEK1 (Homo sapiens, UniProt O14757) | cell-free assay | 81 |
| PTK2B (Homo sapiens, UniProt Q14289) | cell-free assay | 83 |
| BRAF (Homo sapiens, UniProt P15056) | cell-free assay | 47 |
| PLK3 (Homo sapiens, UniProt Q9H4B4) | cell-free assay | 80 |
| PIP5K1A (Homo sapiens, UniProt Q99755) | cell-free assay | 100 |
| PI4KB (Homo sapiens, UniProt Q9UBF8) | cell-free assay | 30 |
| MAP4K3 (Homo sapiens, UniProt Q8IVH8) | cell-free assay | 80 |
| Tyrosine-protein kinase JAK1, JH2 (JAK1, Homo sapiens, UniProt P23458) | cell-free assay | 90 |
| FLT3 (Homo sapiens, UniProt P36888, R834Q) | cell-free assay | 90 |
| GSK3A (Homo sapiens, UniProt P49840) | cell-free assay | 100 |
| BMPR1A (Homo sapiens, UniProt P36894) | binding | 100 |
| STK35 (Homo sapiens, UniProt Q8TDR2) | cell-free assay | 86 |

Series 6
Method: PRP chromatography
Notes: linear fit, 1 mL
| SMILES | logD 1,9-decadiene/water [log units] |
| --- | --- |
| CC(C)C[C@@H]1NC(=O)[C@H](C)NC(=O)[C@@H](CC(C)C)NC(=O)[C@H](CC(C)C)NC(=O)[C@@H](Cc2cscn2)NC(=O)[C@H](CC(C)C)NC(=O)[C@@H](CC(C)C)NC1=O | -4.87 |
| CC(C)C[C@@H]1NC(=O)[C@H](C)NC(=O)[C@@H](CC(C)C)NC(=O)[C@H](C)NC(=O)[C@H](CC(C)C)NC(=O)[C@H](CC(C)C)NC(=O)[C@@H](CC(C)C)NC1=O | -0.18 |
| CC(C)C[C@@H]1NC(=O)[C@H](CC(C)C)NC(=O)[C@H](CC(C)C)NC(=O)[C@H](C(C)C)NC(=O)[C@@H](Cc2cscn2)NC(=O)[C@@H](CC(C)C)NC(=O)[C@H](C)NC1=O | -2.73 |
| CC(C)C[C@@H]1NC(=O)[C@@H](C)NC(=O)[C@H](Cc2cscn2)NC(=O)[C@H](C)NC(=O)[C@H](C(C)C)NC(=O)[C@H](CC(C)C)NC(=O)[C@@H](CC(C)C)NC1=O | -1.82 |
| CC(C)C[C@@H]1NC(=O)[C@H](C(C)C)NC(=O)[C@H](CCC(=O)N2CCCC2)NC(=O)[C@H](CC(C)C)NC(=O)[C@@H](Cc2cscn2)NC(=O)[C@H](CC(C)C)NC(=O)[C@@H](CC(C)C)NC1=O | -0.687 |
| CC(C)C[C@@H]1NC(=O)[C@H](CCC(=O)N2CCCC2)NC(=O)[C@@H](C(C)C)NC(=O)[C@H](C(C)C)NC(=O)[C@H](CC(C)C)NC(=O)[C@@H](CC(C)C)NC(=O)[C@H](CC(C)C)NC1=O | 0.189 |

A few entries again (series 5):
| target | assay | remaining binding [%] |
| --- | --- | --- |
| MAP4K3 (Homo sapiens, UniProt Q8IVH8) | cell-free assay | 80 |
| PLK3 (Homo sapiens, UniProt Q9H4B4) | cell-free assay | 80 |
| Tyrosine-protein kinase JAK1, JH2 (JAK1, Homo sapiens, UniProt P23458) | cell-free assay | 90 |
| CHEK1 (Homo sapiens, UniProt O14757) | cell-free assay | 81 |
| FLT4 (Homo sapiens, UniProt P35916) | cell-free assay | 100 |
| RET (Homo sapiens, UniProt P07949, V804M) | cell-free assay | 91 |
| MAPK3 (Homo sapiens, UniProt P27361) | cell-free assay | 94 |
